# Measured values pooled from the literature.
# Compare with care: the assays were run in different laboratories. Numbers after ± are the reported error.
# Tripartite terminase subunit 3 C-terminal nuclease domain: Tripartite terminase subunit 3, C-terminal nuclease domain (Human betaherpesvirus 5, UniProt P16732)
# Sequence of UniProt P16732 (whole entry, looked up): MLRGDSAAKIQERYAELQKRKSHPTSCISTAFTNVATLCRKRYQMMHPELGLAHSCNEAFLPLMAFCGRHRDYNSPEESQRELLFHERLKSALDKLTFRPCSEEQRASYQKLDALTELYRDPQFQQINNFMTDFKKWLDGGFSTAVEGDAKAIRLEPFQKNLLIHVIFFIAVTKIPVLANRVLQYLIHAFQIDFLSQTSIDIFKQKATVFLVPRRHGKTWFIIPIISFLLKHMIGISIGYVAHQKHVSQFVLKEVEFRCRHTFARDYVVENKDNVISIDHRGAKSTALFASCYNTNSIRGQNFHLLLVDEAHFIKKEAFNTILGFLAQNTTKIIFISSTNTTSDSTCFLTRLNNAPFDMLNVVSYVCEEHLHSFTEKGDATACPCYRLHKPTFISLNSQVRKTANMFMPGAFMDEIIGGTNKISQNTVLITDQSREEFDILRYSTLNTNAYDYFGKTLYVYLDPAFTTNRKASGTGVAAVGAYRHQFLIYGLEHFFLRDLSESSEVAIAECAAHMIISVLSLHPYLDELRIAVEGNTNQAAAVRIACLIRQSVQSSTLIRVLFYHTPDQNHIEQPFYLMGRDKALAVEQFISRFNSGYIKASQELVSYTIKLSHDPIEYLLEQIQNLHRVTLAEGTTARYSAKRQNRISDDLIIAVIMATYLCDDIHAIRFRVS
# Sequence of UniProt P21396 (whole entry, looked up): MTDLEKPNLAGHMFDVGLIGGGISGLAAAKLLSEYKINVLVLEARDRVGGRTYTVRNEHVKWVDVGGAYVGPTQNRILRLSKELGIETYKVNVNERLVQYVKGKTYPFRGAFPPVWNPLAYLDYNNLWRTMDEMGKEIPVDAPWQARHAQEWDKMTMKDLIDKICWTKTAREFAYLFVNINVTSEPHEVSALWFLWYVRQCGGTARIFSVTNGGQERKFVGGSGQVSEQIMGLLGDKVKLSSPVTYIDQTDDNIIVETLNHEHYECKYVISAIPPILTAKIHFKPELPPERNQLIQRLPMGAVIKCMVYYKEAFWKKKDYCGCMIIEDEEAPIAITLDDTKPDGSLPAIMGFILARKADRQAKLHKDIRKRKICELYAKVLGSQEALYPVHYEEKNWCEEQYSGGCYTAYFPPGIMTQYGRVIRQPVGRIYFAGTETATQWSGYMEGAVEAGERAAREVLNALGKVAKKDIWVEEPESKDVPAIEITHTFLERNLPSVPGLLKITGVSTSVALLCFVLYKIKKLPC
# Sequence of UniProt P30542 (whole entry, looked up): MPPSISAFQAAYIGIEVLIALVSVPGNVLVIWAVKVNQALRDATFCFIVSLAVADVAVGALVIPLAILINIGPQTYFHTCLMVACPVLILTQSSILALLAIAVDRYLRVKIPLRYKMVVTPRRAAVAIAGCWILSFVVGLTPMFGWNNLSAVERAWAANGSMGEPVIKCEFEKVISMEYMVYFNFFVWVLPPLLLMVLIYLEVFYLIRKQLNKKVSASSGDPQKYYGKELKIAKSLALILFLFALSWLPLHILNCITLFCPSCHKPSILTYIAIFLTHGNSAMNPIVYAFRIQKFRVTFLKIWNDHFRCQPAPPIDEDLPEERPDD
# Sequence of UniProt Q86SQ6 (whole entry, looked up): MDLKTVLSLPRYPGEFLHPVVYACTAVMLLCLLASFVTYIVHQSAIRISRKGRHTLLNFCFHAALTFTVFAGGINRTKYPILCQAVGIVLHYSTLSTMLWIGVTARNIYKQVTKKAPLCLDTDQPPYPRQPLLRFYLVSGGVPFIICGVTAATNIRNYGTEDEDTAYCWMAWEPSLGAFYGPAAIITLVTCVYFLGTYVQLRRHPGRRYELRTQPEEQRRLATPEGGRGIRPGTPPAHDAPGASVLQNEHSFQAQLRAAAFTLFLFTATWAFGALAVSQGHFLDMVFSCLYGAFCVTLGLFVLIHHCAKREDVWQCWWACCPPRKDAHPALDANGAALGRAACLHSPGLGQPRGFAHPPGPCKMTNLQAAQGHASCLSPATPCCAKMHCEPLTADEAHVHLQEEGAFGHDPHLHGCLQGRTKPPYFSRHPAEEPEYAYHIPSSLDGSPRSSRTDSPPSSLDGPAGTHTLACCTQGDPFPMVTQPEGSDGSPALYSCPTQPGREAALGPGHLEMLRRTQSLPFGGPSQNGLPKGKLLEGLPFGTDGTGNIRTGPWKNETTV
# Sequence of UniProt P05067 (whole entry, looked up): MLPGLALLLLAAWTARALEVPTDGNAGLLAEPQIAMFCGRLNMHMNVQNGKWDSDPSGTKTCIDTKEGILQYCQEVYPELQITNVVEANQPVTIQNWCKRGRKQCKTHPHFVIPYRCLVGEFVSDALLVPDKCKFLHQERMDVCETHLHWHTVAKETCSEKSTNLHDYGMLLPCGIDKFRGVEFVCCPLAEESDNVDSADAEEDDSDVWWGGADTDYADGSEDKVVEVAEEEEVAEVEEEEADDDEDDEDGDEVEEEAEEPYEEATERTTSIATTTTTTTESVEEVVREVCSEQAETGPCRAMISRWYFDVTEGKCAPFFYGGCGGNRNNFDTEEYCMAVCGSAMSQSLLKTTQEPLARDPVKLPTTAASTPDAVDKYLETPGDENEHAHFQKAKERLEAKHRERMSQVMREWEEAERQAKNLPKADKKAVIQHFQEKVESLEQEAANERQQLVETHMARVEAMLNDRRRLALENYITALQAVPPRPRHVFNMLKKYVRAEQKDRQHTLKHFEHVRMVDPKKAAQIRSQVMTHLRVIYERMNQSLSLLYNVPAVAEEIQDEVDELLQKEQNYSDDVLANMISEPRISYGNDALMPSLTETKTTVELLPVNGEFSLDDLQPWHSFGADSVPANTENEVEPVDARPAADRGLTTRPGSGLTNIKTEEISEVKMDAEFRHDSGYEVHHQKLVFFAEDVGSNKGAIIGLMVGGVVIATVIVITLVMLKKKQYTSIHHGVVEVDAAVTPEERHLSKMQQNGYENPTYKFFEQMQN
# Sequence of UniProt P38646 (whole entry, looked up): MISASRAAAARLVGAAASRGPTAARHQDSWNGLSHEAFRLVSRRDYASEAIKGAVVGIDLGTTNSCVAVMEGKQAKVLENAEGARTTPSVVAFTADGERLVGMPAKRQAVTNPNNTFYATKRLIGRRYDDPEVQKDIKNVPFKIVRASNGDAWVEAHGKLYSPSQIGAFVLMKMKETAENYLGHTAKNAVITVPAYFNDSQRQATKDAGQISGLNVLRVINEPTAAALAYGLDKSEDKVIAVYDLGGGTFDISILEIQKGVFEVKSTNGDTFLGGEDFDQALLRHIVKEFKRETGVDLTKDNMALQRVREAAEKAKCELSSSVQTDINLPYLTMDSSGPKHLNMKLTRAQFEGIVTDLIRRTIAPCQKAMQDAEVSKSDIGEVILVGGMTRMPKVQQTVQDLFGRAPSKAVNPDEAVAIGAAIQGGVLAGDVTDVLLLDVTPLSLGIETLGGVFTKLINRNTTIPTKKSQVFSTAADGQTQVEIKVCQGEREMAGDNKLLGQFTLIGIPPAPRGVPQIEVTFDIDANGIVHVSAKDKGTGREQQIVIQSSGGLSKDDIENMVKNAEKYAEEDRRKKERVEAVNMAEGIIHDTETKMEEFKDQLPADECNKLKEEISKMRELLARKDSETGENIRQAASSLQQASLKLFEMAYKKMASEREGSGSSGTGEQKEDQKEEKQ
# Sequence of UniProt P62575 (whole entry, looked up): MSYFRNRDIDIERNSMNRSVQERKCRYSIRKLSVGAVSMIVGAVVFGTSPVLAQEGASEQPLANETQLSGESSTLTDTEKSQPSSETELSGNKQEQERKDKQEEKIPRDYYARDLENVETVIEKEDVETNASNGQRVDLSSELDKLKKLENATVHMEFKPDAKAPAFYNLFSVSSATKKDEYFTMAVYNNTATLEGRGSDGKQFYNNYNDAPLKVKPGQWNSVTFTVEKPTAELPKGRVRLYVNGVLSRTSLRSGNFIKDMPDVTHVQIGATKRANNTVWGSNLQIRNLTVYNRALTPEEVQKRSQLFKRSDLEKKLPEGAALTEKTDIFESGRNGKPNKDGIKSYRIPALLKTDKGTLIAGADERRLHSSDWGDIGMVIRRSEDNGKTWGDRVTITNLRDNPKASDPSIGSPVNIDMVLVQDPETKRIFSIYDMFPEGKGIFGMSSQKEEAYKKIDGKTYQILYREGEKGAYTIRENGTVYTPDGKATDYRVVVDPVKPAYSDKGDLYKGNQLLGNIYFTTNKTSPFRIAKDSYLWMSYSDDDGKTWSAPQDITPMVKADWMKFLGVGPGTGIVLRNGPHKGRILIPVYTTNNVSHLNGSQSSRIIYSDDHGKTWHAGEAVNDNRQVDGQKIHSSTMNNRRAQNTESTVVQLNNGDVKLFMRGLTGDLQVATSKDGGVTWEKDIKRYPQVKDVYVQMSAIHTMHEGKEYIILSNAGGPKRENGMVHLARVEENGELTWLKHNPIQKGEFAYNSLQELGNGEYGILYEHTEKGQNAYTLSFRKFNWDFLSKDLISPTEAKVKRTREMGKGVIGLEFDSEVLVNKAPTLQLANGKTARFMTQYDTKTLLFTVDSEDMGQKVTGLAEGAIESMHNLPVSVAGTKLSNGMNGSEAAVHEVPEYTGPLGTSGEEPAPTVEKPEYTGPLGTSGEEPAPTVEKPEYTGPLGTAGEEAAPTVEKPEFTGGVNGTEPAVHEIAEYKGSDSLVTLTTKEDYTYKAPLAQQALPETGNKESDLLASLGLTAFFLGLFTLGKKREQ
# Sequence of UniProt P32248 (whole entry, looked up): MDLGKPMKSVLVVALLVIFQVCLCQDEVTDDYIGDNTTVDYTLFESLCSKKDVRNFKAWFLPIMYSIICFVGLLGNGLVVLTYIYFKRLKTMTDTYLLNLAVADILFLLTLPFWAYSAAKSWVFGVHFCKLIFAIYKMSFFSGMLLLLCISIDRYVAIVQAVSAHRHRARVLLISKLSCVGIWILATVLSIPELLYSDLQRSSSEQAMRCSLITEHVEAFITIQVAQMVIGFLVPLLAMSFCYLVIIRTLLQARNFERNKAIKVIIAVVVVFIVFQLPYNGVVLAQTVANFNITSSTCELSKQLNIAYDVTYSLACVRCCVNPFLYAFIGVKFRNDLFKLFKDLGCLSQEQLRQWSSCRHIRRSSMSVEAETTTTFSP
Compound,target or system,test,system,setting,how to read,endpoint,value
CN[C@]1(c2ccccc2Cl)CCCCC1=O,"Sodium-dependent noradrenaline transporter (SLC6A2, Homo sapiens, UniProt P23975)","radioligand binding, antagonist, radioligand displacement",,30 µM,,inhibition,-3%
CN(C(=O)n1cnc(-c2ccc[n+]([O-])c2)c1)C1CCCCC1,"Adenosine receptor A1 (ADORA1, Homo sapiens, UniProt P30542)",radioligand binding,,"50 µM, together with: [3H]DPCPX",,inhibition,12%
CN(CCN1CCC(OC(=O)Nc2ccccc2-c2ccccc2)CC1)C(=O)c1ccc(CN2CCC(C(N)=O)CC2)cc1,rat α2 adrenoceptor non-selective,radioligand binding,,"1 µM, together with: [3H]RX821002 0.5 nM",,inhibition,11%
O=c1ccc2ccccc2o1,"Amine oxidase [flavin-containing] A (Maoa, Rattus norvegicus, UniProt P21396)","radioligand binding, antagonist",,10 µM,,inhibition,22.7%
C[C@H]1CN(c2n[nH]c3nc(N[C@H]4CC[C@H](NS(=O)(=O)CCC(F)(F)F)CC4)ncc23)CCO1,"Stress-70 protein, mitochondrial (HSPA9, Homo sapiens, UniProt P38646)","inhibitor, Kinobeads competition profiling",,20 µM,relative to: vehicle,relative abundance,1.12
O=C(Nc1ccc2c(c1)B(O)OC2)c1cccc(OCC2CCCCC2)c1,"Genome polyprotein, NS2B-NS3 protease (dengue virus type 2, UniProt P29990)","enzyme activity, FRET",dengue virus serotype 2,"50 µM, together with: substrate 50 µM",,inhibition,18 ± 2%
Oc1ccc2c3c1O[C@H]1[C@@H](O)CC[C@@]4(O)[C@@H](C2)N(CC2CCC2)CC[C@]314,"Adhesion G protein-coupled receptor A1 (ADGRA1, Homo sapiens, UniProt Q86SQ6)","β-arrestin recruitment, TANGO luminescence, item: GPR123",,concentration not given,relative to: basal luminescence,log2 fold change,0.016
COc1ccc(N2C(=O)N(c3c(C)cccc3Cl)Cc3cnc(Nc4ccc(C5CCN(C)CC5)cc4OC)nc32)nc1,"cAMP-dependent protein kinase catalytic subunit beta (PRKACB, Homo sapiens, UniProt P22694)","kinase activity, inhibitor",,"0.5 µM, kinase PKACB",,inhibition,5.26%
O=C(Nc1cnccc1Cl)N1CCN(Cc2ccc3c(c2)OC(F)(F)O3)CC1,"dopamine D4.2 receptor, human",binding,,"50 µM, together with: [3H]spiperone",,inhibition,30%
COc1ccc(S(=O)(=O)Oc2ccc3c(c2)Oc2nc4c(c(N)c2C3c2cccc(OC)c2)CCCC4)cc1 (centres unmarked),"Amyloid-beta precursor protein (APP, Homo sapiens, UniProt P05067)","Aβ42 self-aggregation, inhibitor, thioflavin T fluorescence",,1 µM,,inhibition,15%
CN1CCN(c2cc(-c3ccncc3)c(-c3ccc4ccccc4c3)nn2)CC1,"C-C chemokine receptor type 7 (CCR7, Homo sapiens, UniProt P32248)","antagonist, FLIPR",,10 µM,,inhibition,4.3%
Nc1ncnc2c1ncn2[C@@H]1O[C@H](COP(=O)(O)OP(=O)(O)OP(=O)(O)O)[C@@H](O)[C@H]1O,"ATP-sensitive inward rectifier potassium channel 11 (Homo sapiens, UniProt Q14654)",single-channel patch clamp,,"100 µM, -25 mV",,open time constant,0.9 ms
COc1ccccc1-c1cccc(CN2CCCC(C(=O)NCc3ccc(F)cc3)C2)c1 (centres unmarked),Vero-E6,CellTiter-Glo ATP,,"72 h, retest 8-point duplicates","relative to: DMSO 0%, hyamine -100%, more negative, more toxic",maximum response,-12%
Nc1ccncc1,"Glutamate receptor 2 (Homo sapiens, UniProt P42262)","ion current, negative allosteric modulator, automated patch clamp",HEK293,30 µM,,inhibition,16%
O=c1[nH]c2sc3c(c2c(=O)n1O)CCNC3,Tripartite terminase subunit 3 C-terminal nuclease domain,"endonuclease activity, ELISA",,"20 µM, together with: dsDNA",,inhibition,72%
O=C(Nc1ccc2c(c1)B(O)OC2)c1ccc(Oc2ccccc2)cc1,"Genome polyprotein, NS2B-NS3 protease (West Nile virus, UniProt P06935)","enzyme activity, FRET",,"50 µM, together with: substrate 50 µM",,inhibition,19 ± 6%
Cn1cccc1-c1cccnc1,"Muscarinic acetylcholine receptor M5 (CHRM5, Homo sapiens, UniProt P08912)",binding,,50 µM,,inhibition,-11.6%
O=C(NCc1ccc(B(O)O)cc1)c1cccc(OCc2ccccc2)c1,"Genome polyprotein, NS2B-NS3 protease (dengue virus type 2, UniProt P29990)","enzyme activity, FRET",dengue virus serotype 2,"50 µM, together with: substrate 50 µM",,inhibition,≤ 10%
CC(=O)N[C@@H]1C(N=[N+]=[N-])C[C@](OCC2O[C@@H](Oc3ccc([N+](=O)[O-])cc3)C(O)C(O)[C@H]2O)(C(=O)O)OC1[C@H](O)[C@H](O)CO (some centres unmarked),"Sialidase A (nanA, Streptococcus pneumoniae, UniProt P62575)",,,"8 µM, pH 6",,inhibition,11.6 ± 6.7%
COc1cc(Nc2ncc(F)c(Nc3ccc4c(n3)NC(=O)C(C)(C)O4)n2)cc(OC)c1OC,"Cyclin-dependent kinase 9 (CDK9, Homo sapiens, UniProt P50750)",KINOMEscan,,10 µM,,inhibition,0%
Nc1ccc(C(=O)Nc2ccc3c(c2)B(O)OC3)cc1,"Genome polyprotein, NS2B-NS3 protease (dengue virus type 2, UniProt P29990)","enzyme activity, FRET",dengue virus serotype 2,"50 µM, together with: substrate 50 µM",,inhibition,20 ± 5%
Cc1oc(-c2cccc(Cl)c2)nc1CN1CCCC(C(=O)NCCc2ccc(Cl)cc2)C1 (centres unmarked),Vero-E6,CellTiter-Glo ATP,,"72 h, first round 5-point","relative to: DMSO 0%, hyamine -100%, more negative, more toxic",maximum response,-18.6%
O=c1[nH]c2sc3c(c2c(=O)n1O)CCN(Cc1ccccc1)C3,Tripartite terminase subunit 3 C-terminal nuclease domain,"endonuclease activity, ELISA",,"20 µM, together with: dsDNA",,inhibition,88%

# Repeated from above:
Compound,target or system,test,system,setting,how to read,endpoint,value
CN1CCN(c2cc(-c3ccncc3)c(-c3ccc4ccccc4c3)nn2)CC1,"C-C chemokine receptor type 7 (CCR7, Homo sapiens, UniProt P32248)","antagonist, FLIPR",,10 µM,,inhibition,4.3%
Nc1ccc(C(=O)Nc2ccc3c(c2)B(O)OC3)cc1,"Genome polyprotein, NS2B-NS3 protease (dengue virus type 2, UniProt P29990)","enzyme activity, FRET",dengue virus serotype 2,"50 µM, together with: substrate 50 µM",,inhibition,20 ± 5%
CN[C@]1(c2ccccc2Cl)CCCCC1=O,"Sodium-dependent noradrenaline transporter (SLC6A2, Homo sapiens, UniProt P23975)","radioligand binding, antagonist, radioligand displacement",,30 µM,,inhibition,-3%
Nc1ccncc1,"Glutamate receptor 2 (Homo sapiens, UniProt P42262)","ion current, negative allosteric modulator, automated patch clamp",HEK293,30 µM,,inhibition,16%
